Experimental data from different studies.
Lines come from different studies, so protocols differ. Values joined by “and” are separate records of one study, mostly repeats; a detail may differ. Numbers after ± are the reported error.
USP33 ZnF-UBD domain: Ubiquitin carboxyl-terminal hydrolase 33, ZnF-UBD domain (USP33, Homo sapiens, UniProt Q8TEY7)
Sequence of UniProt Q8TEY7 (whole entry, looked up): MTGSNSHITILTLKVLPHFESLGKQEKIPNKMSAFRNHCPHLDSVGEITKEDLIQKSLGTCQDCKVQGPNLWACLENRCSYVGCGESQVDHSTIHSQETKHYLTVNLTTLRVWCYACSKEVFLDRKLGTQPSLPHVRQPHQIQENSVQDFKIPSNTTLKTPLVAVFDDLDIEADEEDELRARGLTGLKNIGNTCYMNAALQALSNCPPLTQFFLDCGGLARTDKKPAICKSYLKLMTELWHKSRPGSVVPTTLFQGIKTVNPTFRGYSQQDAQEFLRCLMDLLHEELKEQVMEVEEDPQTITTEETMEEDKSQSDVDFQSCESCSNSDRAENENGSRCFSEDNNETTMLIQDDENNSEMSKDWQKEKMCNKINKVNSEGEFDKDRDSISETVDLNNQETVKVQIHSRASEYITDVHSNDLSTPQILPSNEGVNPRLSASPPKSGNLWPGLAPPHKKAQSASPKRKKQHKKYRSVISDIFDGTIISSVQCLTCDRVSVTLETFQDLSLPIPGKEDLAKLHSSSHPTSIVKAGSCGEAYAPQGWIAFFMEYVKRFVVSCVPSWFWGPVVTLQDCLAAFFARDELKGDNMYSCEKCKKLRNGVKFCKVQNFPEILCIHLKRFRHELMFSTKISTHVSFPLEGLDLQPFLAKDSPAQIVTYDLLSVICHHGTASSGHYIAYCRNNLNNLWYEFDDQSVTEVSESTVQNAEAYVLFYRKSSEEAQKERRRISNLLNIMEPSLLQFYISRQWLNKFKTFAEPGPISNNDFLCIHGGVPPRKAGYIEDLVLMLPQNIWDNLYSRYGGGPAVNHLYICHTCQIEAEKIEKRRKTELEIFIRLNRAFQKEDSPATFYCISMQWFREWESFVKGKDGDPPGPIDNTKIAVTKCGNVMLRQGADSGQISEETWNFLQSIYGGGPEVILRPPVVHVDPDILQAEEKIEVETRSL
Sequence of UniProt Q16774 (whole entry, unmodified, looked up): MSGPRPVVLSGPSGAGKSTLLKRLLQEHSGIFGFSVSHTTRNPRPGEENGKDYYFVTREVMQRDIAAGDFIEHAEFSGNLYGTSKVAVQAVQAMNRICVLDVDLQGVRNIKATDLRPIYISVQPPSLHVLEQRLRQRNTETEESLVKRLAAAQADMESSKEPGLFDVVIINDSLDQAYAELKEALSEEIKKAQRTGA
Sequence of UniProt P08185 (whole entry, looked up): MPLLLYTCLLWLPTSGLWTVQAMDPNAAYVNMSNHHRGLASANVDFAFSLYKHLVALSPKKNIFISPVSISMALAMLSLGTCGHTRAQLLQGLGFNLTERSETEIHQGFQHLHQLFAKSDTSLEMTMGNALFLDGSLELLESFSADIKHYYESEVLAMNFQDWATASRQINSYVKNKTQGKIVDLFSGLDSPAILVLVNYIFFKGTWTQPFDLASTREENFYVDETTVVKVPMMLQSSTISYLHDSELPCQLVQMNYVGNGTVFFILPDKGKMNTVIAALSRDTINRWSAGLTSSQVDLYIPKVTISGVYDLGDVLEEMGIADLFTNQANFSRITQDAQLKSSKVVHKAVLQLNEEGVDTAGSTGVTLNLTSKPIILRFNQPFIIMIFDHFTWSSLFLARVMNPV
Sequence of UniProt P48730 (whole entry, looked up): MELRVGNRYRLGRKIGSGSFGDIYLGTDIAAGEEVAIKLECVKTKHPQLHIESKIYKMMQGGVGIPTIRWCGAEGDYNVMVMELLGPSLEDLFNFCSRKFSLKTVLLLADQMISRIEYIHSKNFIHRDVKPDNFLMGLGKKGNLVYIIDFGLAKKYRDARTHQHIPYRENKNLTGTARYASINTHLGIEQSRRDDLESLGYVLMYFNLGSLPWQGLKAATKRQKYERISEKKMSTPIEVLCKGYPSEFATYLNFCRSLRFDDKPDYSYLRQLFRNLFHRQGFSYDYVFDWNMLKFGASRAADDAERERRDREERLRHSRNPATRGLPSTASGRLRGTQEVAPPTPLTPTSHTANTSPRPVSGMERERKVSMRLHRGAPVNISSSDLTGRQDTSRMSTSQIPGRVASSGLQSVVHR
Sequence of UniProt P22748 (whole entry, looked up): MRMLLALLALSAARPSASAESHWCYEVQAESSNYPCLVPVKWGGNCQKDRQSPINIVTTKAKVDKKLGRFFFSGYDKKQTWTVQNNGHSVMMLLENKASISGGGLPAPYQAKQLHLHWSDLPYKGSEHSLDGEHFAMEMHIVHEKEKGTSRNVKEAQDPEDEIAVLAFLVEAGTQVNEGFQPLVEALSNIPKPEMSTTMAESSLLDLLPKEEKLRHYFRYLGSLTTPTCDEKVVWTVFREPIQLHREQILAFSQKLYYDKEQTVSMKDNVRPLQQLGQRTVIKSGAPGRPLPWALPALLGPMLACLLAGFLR
Sequence of UniProt Q13490 (whole entry, looked up): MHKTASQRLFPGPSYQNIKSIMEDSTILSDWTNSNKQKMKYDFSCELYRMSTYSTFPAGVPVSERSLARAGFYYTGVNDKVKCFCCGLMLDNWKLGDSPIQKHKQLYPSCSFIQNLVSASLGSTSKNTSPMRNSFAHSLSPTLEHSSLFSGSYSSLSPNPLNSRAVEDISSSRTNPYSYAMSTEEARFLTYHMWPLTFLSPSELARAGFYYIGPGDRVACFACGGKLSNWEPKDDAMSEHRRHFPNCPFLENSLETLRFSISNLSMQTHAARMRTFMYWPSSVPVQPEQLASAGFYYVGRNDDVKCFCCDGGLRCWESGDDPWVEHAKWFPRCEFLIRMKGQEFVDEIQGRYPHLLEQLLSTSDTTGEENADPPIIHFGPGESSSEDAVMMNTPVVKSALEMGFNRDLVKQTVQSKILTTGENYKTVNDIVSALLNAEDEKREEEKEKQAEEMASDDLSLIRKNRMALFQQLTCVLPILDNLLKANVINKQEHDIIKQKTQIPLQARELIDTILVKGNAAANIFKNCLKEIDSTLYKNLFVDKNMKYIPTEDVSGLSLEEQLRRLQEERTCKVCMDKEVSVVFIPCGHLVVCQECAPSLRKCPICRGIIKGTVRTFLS
Sequence of UniProt P02749 (whole entry, unmodified, looked up): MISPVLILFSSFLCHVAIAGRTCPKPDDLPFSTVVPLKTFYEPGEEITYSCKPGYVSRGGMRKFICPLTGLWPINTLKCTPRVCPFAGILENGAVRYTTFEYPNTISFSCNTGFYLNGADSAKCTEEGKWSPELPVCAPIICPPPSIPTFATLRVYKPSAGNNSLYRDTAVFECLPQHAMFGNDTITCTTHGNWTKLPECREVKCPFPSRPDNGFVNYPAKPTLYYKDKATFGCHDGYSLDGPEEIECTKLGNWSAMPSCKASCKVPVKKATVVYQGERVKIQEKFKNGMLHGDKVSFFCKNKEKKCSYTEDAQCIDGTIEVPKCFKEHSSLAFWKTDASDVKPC
Sequence of UniProt P39146 (whole entry, looked up): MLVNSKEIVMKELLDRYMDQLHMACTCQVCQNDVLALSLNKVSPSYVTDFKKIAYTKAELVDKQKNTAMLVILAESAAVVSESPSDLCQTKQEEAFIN
Sequence of UniProt P31641 (whole entry, unmodified, looked up): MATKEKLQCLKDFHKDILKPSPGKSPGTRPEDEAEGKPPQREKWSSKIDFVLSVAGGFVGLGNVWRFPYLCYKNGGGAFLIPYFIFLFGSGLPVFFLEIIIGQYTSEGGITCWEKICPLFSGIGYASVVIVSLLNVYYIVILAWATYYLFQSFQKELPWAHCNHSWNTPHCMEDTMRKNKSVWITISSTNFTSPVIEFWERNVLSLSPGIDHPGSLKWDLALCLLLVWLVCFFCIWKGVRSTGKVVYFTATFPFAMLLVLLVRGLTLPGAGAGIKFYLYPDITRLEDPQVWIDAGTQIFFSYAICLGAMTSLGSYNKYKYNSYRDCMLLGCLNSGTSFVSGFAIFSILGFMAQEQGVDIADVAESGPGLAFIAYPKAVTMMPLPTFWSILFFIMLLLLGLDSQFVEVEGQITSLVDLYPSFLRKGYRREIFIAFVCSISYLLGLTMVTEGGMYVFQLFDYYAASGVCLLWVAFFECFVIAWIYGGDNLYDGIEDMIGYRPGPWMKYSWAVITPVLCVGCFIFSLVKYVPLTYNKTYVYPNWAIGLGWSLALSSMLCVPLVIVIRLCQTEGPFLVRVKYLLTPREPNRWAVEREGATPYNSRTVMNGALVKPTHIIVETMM
Sequence of UniProt Q86UL3 (whole entry, looked up): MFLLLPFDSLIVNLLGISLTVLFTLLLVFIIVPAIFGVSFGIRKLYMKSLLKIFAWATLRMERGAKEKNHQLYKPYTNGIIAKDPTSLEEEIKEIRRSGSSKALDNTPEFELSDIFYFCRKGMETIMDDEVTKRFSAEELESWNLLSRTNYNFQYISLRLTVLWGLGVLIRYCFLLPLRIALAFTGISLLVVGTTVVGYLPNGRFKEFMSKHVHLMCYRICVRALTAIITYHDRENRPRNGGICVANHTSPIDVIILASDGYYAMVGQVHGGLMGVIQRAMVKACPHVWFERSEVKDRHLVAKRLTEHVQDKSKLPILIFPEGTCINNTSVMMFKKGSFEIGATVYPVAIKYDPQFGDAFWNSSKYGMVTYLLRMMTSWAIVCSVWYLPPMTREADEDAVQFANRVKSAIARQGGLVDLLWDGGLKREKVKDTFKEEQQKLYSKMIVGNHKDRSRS
Sequence of UniProt B9K712 (whole entry, looked up): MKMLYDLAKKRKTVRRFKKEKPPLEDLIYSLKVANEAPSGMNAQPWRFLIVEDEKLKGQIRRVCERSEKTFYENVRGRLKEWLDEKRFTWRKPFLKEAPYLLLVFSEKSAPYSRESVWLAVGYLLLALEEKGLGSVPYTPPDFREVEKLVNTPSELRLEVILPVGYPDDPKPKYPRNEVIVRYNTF

SMILES | target | test | test system | setting | Kd
Nc1nc2c(ncn2[C@@H]2O[C@@H]3CO[P@](=O)(O)O[C@H]4[C@@H](O)[C@H](n5cnc6c(=O)[nH]c(N)nc65)O[C@@H]4CO[P@](=O)(O)O[C@H]3[C@H]2O)c(=O)[nH]1 | Competence protein ComFB (comFB, Bacillus subtilis, UniProt P39146) |  |  |  | 0.17 ± 0.07 µM
OC[C@H]1OC(O)[C@H](O)[C@@H](O)[C@@H]1O (some centres unmarked) | Transcription factor MafB (MAFB, Homo sapiens, UniProt Q9Y5Q3) | binding, microscale thermophoresis |  |  | > 2000 µM
N[C@@H](Cc1ccc(O)cc1)C(=O)O | Iodotyrosine deiodinase, split at 68–92 (IYD, Thermotoga neapolitana, UniProt B9K712) | fluorescence quenching |  | 25 °C, oxidized enzyme | > 2000 µM
O=C(O)CCC(=O)c1ccc(S(=O)(=O)N2CCCC2)cc1 | USP33 ZnF-UBD domain |  |  |  | > 1000 µM
C=CC(=O)N1CCN(c2nc(OC[C@@H]3CCCN3C)nc3c(F)c(-c4nc(N)cc(C)c4C(F)(F)F)c(Cl)cc23)[C@@H](C)C1 | GTPase KRas, GDP-bound (KRAS, Homo sapiens, UniProt P01116, G12V) | binding, surface plasmon resonance |  |  | 11.9 ± 0.76 µM
Nc1ncnc2c1ncn2[C@@H]1O[C@H](COP(=O)(O)OP(=O)(O)O)[C@@H](O)[C@H]1O | GUK1 (Homo sapiens, UniProt Q16774, S18A) | binding, ITC |  | 25 °C, together with: GMP | 30 ± 3 µM
O=C(O)CNC(=O)c1ccc(S(=O)(=O)N2CCC(n3c(=O)oc4ccccc43)CC2)cc1 | USP33 ZnF-UBD domain |  |  |  | > 1000 µM
CO[C@H]1O[C@H](COS(=O)(=O)O)[C@@H](O[C@@H]2O[C@@H](C(=O)O)[C@@H](O[C@H]3O[C@H](COS(=O)(=O)O)[C@@H](O[C@@H]4O[C@H](C(=O)O)[C@@H](O[C@H]5O[C@H](COS(=O)(=O)O)[C@@H](O)[C@H](O)[C@H]5NS(=O)(=O)O)[C@H](O)[C@H]4O)[C@H](OS(=O)(=O)O)[C@H]3NS(=O)(=O)O)[C@H](O)[C@H]2OS(=O)(=O)O)[C@H](O)[C@H]1NS(=O)(=O)O | Beta-2-glycoprotein 1, domain V (APOH, Homo sapiens, UniProt P02749, V266L) | isothermal titration calorimetry | 25 mM cacodylate buffer | pH 7.2, 298 K, together with: 150 mM NaCl | 37.7 µM
O=C(O)CCC(=O)C(=O)O | NtcA | binding, microscale thermophoresis |  | no DNA | 2000 µM
O=c1ccn([C@@H]2O[C@H](COP(=O)(O)OP(=O)(O)OP(=O)(O)O)[C@@H](O)[C@H]2O)c(=O)[nH]1 | BisD (Pseudomonas knackmussii) | binding, isothermal titration calorimetry |  |  | ~21 µM
N[C@@H](CCC(=O)O)C(=O)O | Uncharacterized protein (Pelagibacter ubique, UniProt Q4FM26) | binding, competition isothermal titration calorimetry | Candidatus Pelagibacter ubique | together with: phenylalanine 1 mM competitor | 0.000344 µM and 0.000719 µM
O=C(O)CCn1nnc(-c2ccccc2)n1 | USP33 ZnF-UBD domain |  |  |  | > 1000 µM
NC[C@@H]1O[C@H](O[C@H]2[C@@H](O)[C@H](O[C@@H]3[C@@H](O)[C@H](N)C[C@H](N)[C@H]3O[C@H]3O[C@H](CN)[C@@H](O)[C@H](O)[C@H]3N)O[C@@H]2CO)[C@H](N)[C@@H](O)[C@@H]1O | (CUG)10 RNA | SPR |  |  | 0.472 µM
CCCN1CCN(c2ccc(-c3cncc(Cl)c3N3CCC4(CCNC4=O)CC3)cc2)CC1 | Glycerol-3-phosphate acyltransferase 4 (GPAT4, Homo sapiens, UniProt Q86UL3) | SILAC displacement | LS174T-L5 cell lysate |  | 7.03 µM
OC[C@H]1O[C@H](O[C@H]2[C@H](O)[C@@H](O)[C@@H](O[C@H]3[C@H](O)[C@@H](O)[C@@H](O[C@H]4[C@H](O)[C@@H](O)[C@@H](O[C@H]5[C@H](O)[C@@H](O)C(O)O[C@@H]5CO)O[C@@H]4CO)O[C@@H]3CO)O[C@@H]2CO)[C@H](O)[C@@H](O)[C@@H]1O (some centres unmarked) | Uncharacterized protein (Staphylococcus aureus, UniProt Q2G1E9) | isothermal titration calorimetry |  | 25 °C, single-site fit | 1.21 ± 0.09 µM
NCC(=O)O | Uncharacterized protein (Pelagibacter ubique, UniProt Q4FM26) | isothermal titration calorimetry | Candidatus Pelagibacter ubique |  | 0.0299 µM and 0.0222 µM
O=C(O)CCc1nc2ncccn2n1 | USP33 ZnF-UBD domain |  |  |  | > 1000 µM
C[C@]12C=CC(=O)C=C1CC[C@@H]1[C@@H]2[C@@H](O)C[C@@]2(C)[C@H]1CC[C@]2(O)C(=O)CO | SERPINA6 (Homo sapiens, UniProt P08185) | binding, ultrafiltration, LC-MS/MS | nondiabetic male subjects, plasma | 37 °C, 10% CO2, albumin and cortisol competition modelled | 0.0362 µM
OC[C@@H](O)[C@@H](O[C@H]1O[C@H](CO)[C@@H](O[C@H]2O[C@H](CO)[C@@H](O[C@H]3O[C@H](CO)[C@@H](O)[C@H](O)[C@H]3O)[C@H](O)[C@H]2O)[C@H](O)[C@H]1O)[C@H](O)[C@@H](O)CO | Uncharacterized protein (Staphylococcus aureus, UniProt Q2G1E9) | isothermal titration calorimetry |  | 25 °C, single-site fit | 0.84 ± 0.19 µM
Nc1ncnc2c1ncn2[C@@H]1O[C@H](COP(=O)(O)OP(=O)(O)OP(=O)(O)O)[C@@H](O)[C@H]1O | CKMT1A (Homo sapiens, UniProt P12532) | microscale thermophoresis |  | pH 8.5, WT mutant, no substrate | 12 ± 2 µM
Cc1cc(NC(=O)CCC(=O)O)nn1C | USP33 ZnF-UBD domain |  |  |  | > 1000 µM
CCn1cnc(C(=O)NC)c1C(=O)NC | CSNK1D (Homo sapiens, UniProt P48730) | surface plasmon resonance |  | up to 50 µM | no binding
C[C@H](N)C(=O)N[C@@H](CCCCNC(=O)CCCCC(=O)NCCCC[C@H](NC(=O)[C@H](C)N)C(=O)N1CCC[C@H]1C(=O)N[C@@H](Cc1ccccc1)C(=O)N[C@H](CCCCNC(=O)c1ccc2c(c1)C(=O)OC21c2ccc(O)cc2Oc2cc(O)ccc21)C(N)=O)C(=O)N1CCC[C@H]1C(=O)N[C@@H](Cc1ccccc1)C(N)=O | Baculoviral IAP repeat-containing protein 2, BIR3 domain (BIRC2, Homo sapiens, UniProt Q13490) | binding, fluorescence polarisation |  | together with: tracer 1 nM | 0.0007 ± 0.0005 µM
NC(=O)c1cc(-n2c(CCC(=O)O)nc3ccccc32)cs1 | USP33 ZnF-UBD domain |  |  |  | > 1000 µM
NCCCC(=O)O | SLC6A6 (Homo sapiens, UniProt P31641, F300A) | microscale thermophoresis |  | F300A mutant | no binding
O=C(O)CCn1cccn1 | USP33 ZnF-UBD domain |  |  |  | > 1000 µM
Nc1nc2c(ncn2[C@@H]2O[C@H](COP(=O)(O)O)[C@@H](O)[C@H]2O)c(=O)[nH]1 | GUK1 (Homo sapiens, UniProt Q16774, Y53A) | binding, ITC |  | 25 °C | > 500 µM
O=C(O)CSc1nnc(NC(=O)COc2ccccc2)s1 | USP33 ZnF-UBD domain |  |  |  | > 1000 µM
NCc1ccc(S(N)(=O)=O)cc1 | CA4 (Homo sapiens, UniProt P22748) | fluorescent thermal shift |  | pH 7.0, 25 °C | 3.3 µM
